Published values of several laboratories.
Lines come from different studies, so protocols differ. Several values in a cell are separate wells, animals, samples, runs or records. ± marks the error that the study gave. Values after ≈ are worked out from the molar mass of the structure shown.

| Compound | organism | test | system | conditions | how to read | measurement | value |
| --- | --- | --- | --- | --- | --- | --- | --- |
| CCOC(=O)C1(Cc2cc(F)cc(F)c2)Oc2cc(F)ccc2N(Cc2cc(F)cc(F)c2)C1=O (stereo not shown) | Amaranthus retroflexus | fresh weight, greenhouse postemergence |  | postemergence, 150 g ai/ha, 21 days |  | inhibition | 45.6 ± 3.37% |
| CC1COC2=C1C(=O)C(=O)c1c2ccc2c1C(OC(=O)CNC(=O)C(N)CCC(=O)O)CCC2(C)C (mixture of isomers) | Staphylococcus epidermidis |  |  | 10 µmol/mL, 48 h, 10 µL on 6 mm disc |  | inhibition zone diameter | 24.8 ± 1 mm |
| Cc1cc(C(=O)Nc2nc3cccc(C)c3n2[C@H]2CCCCN(C(=O)/C=C/CN(C)C)C2)ccn1 | Trypanosoma brucei brucei |  | 2T1 CLK1 overexpressing | 0.0098 µM, DMSO pretreated | reference: maximum | survival | 56.3% and 58.9% and 45.4% and 64.5% |
| O=[N+]([O-])c1ccc(C2=[N+]([O-])c3ccccc3N3CCCN=C23)cc1 | Bacteroides fragilis |  |  |  |  | MIC90 | ≤ 0.06 µg/mL |
| CC(O)CN.O=C(O)C(Cl)Cl | Amaranthus retroflexus | herbicidal activity |  | 15 mg/mL, 21 days, post-emergence greenhouse |  | inhibition | 50% |
| CCc1nn(C)c2nc(-c3ccc(C(=O)O)cc3)nc(NCc3ccccc3)c12 | Cryptosporidium parvum | parasite growth, immunofluorescence imaging | HCT-8, Iowa | 667 nM |  | inhibition | 16.3% and 30.6% |
| CN(C(=O)c1ccn2ncc(-c3ccc(C(N)=O)cc3)c2c1)c1ccc(C#N)cn1 | Cryptosporidium parvum |  | UGA1 Nluc, IFN-gamma knockout C57BL/6 mice, faeces | oral, 10 mg/kg daily, 408 h post infection, treatment days 11-17 | higher means more parasites | faecal Nluc luminescence | 174 a.u. and 712 a.u. and 24500 a.u. and 1700 a.u. and 285 a.u. and 239 a.u. |
| [O-][N+]1=C(Cc2ccccc2)C2=NCCCN2c2ccccc21 | Bacteroides fragilis | microbial growth |  |  |  | MIC50 | 1 µg/mL (≈ 3.43 µM) |
| CN(C)S(=O)(=O)c1ccc(S(=O)(=O)N2CCC(n3c(=O)[nH]c4ccccc43)CC2)cc1 | Escherichia coli |  | Keio wild type | concentration not given, 96 h |  | streptomycin concentration | 3.92 µg/mL |
| CCOC(=O)C1(Cc2c(F)cccc2F)Oc2cc(F)ccc2N(Cc2c(F)cccc2F)C1=O (stereo not shown) | Amaranthus retroflexus | fresh weight, greenhouse postemergence |  | postemergence, 150 g ai/ha, 21 days |  | inhibition | 65.4 ± 2.94% |
| CC(C)[C@H]1NC(=O)[C@H](Cc2ccccc2)NC(=O)[C@@H](C(C)C)NC(=O)[C@@H](C)NC(=O)[C@H](CO)NC(=O)[C@@H](Cc2c(-c3ccc(-c4ccccc4)cc3)[nH]c3ccccc23)NC(=O)[C@@H](CO)NC1=O | Vibrio vulnificus | broth dilution |  |  |  | MIC90 | > 50 µM |
| C#CCCCC(=O)N[C@H]1CCOC1=O | Escherichia coli | LuxR reporter, antagonist | DH5α sensor strain | 100 µM, with: OHHL 200 nM |  | inhibition | 45 ± 2% |
| CCc1cc(CCC(=O)O)nc(-c2nc(=O)c3ccccc3s2)c1 | Acinetobacter baumannii | cell growth, inhibitor | NCTC 13424 XDR | 5% CO2 |  | EC50 | > 100 µM |

For quick reference, copied from above:
| Compound | organism | test | system | conditions | how to read | measurement | value |
| --- | --- | --- | --- | --- | --- | --- | --- |
| CN(C(=O)c1ccn2ncc(-c3ccc(C(N)=O)cc3)c2c1)c1ccc(C#N)cn1 | Cryptosporidium parvum |  | UGA1 Nluc, IFN-gamma knockout C57BL/6 mice, faeces | oral, 10 mg/kg daily, 408 h post infection, treatment days 11-17 | higher means more parasites | faecal Nluc luminescence | 174 a.u. and 712 a.u. and 24500 a.u. and 1700 a.u. and 285 a.u. and 239 a.u. |
| [O-][N+]1=C(Cc2ccccc2)C2=NCCCN2c2ccccc21 | Bacteroides fragilis | microbial growth |  |  |  | MIC50 | 1 µg/mL (≈ 3.43 µM) |
